Assay results of several laboratories.
Numbers after ± are the reported error.
Hypoxanthine-guanine phosphoribosyltransferase: Hypoxanthine-guanine phosphoribosyltransferase (Homo sapiens, UniProt P00492)
UniProt P00492, sequence (whole entry, looked up): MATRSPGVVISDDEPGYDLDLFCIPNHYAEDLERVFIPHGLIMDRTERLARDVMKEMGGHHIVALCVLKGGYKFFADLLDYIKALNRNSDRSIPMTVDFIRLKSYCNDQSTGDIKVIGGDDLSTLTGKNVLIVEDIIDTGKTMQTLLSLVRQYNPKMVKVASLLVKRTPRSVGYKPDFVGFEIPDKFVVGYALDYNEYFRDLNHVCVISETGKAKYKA
AGTR2: Type-2 angiotensin II receptor (AGTR2, Homo sapiens, UniProt P50052)
UniProt P50052, sequence (whole entry, unmodified, looked up): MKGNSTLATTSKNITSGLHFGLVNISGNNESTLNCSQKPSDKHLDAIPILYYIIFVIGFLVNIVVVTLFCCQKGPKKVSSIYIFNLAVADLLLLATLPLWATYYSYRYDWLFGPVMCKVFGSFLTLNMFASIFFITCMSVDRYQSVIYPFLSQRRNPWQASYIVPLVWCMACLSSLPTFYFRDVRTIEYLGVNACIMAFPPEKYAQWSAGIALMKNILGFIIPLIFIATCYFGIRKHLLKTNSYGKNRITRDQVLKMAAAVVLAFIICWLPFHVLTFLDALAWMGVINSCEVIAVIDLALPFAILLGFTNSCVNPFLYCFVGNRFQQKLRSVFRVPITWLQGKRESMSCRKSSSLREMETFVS
MAPK1: Mitogen-activated protein kinase 1 (MAPK1, Homo sapiens, UniProt P28482)
UniProt P28482, sequence (whole entry, looked up): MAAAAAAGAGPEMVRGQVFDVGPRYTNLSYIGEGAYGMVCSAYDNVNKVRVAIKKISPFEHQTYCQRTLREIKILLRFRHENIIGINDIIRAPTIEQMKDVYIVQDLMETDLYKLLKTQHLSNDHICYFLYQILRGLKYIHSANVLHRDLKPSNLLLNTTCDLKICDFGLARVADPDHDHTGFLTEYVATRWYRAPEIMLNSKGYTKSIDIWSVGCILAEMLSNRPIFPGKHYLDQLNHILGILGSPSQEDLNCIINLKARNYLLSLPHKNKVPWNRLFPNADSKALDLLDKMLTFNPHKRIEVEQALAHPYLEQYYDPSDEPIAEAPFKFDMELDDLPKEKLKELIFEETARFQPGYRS
DRD4: D(4) dopamine receptor (DRD4, Homo sapiens, UniProt P21917)
UniProt P21917, sequence (whole entry, looked up): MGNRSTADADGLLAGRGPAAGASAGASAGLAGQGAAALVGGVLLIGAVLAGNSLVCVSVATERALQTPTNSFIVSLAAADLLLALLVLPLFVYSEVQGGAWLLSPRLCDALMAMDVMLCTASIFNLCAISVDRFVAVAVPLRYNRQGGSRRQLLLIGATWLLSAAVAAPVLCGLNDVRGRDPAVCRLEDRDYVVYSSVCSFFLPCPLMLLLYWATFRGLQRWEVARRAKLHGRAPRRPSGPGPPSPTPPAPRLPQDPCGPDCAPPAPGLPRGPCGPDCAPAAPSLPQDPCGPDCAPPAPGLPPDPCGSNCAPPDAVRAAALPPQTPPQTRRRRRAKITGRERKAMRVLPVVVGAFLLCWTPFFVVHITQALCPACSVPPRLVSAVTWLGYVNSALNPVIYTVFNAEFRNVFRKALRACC
cathepsin B: cathepsin B (Capra hircus, UniProt A0A452G2V1)
CREBBP KIX domain: CREB-binding protein, KIX domain (CREBBP, Homo sapiens, UniProt Q92793)
UniProt Q92793, sequence (whole entry, looked up): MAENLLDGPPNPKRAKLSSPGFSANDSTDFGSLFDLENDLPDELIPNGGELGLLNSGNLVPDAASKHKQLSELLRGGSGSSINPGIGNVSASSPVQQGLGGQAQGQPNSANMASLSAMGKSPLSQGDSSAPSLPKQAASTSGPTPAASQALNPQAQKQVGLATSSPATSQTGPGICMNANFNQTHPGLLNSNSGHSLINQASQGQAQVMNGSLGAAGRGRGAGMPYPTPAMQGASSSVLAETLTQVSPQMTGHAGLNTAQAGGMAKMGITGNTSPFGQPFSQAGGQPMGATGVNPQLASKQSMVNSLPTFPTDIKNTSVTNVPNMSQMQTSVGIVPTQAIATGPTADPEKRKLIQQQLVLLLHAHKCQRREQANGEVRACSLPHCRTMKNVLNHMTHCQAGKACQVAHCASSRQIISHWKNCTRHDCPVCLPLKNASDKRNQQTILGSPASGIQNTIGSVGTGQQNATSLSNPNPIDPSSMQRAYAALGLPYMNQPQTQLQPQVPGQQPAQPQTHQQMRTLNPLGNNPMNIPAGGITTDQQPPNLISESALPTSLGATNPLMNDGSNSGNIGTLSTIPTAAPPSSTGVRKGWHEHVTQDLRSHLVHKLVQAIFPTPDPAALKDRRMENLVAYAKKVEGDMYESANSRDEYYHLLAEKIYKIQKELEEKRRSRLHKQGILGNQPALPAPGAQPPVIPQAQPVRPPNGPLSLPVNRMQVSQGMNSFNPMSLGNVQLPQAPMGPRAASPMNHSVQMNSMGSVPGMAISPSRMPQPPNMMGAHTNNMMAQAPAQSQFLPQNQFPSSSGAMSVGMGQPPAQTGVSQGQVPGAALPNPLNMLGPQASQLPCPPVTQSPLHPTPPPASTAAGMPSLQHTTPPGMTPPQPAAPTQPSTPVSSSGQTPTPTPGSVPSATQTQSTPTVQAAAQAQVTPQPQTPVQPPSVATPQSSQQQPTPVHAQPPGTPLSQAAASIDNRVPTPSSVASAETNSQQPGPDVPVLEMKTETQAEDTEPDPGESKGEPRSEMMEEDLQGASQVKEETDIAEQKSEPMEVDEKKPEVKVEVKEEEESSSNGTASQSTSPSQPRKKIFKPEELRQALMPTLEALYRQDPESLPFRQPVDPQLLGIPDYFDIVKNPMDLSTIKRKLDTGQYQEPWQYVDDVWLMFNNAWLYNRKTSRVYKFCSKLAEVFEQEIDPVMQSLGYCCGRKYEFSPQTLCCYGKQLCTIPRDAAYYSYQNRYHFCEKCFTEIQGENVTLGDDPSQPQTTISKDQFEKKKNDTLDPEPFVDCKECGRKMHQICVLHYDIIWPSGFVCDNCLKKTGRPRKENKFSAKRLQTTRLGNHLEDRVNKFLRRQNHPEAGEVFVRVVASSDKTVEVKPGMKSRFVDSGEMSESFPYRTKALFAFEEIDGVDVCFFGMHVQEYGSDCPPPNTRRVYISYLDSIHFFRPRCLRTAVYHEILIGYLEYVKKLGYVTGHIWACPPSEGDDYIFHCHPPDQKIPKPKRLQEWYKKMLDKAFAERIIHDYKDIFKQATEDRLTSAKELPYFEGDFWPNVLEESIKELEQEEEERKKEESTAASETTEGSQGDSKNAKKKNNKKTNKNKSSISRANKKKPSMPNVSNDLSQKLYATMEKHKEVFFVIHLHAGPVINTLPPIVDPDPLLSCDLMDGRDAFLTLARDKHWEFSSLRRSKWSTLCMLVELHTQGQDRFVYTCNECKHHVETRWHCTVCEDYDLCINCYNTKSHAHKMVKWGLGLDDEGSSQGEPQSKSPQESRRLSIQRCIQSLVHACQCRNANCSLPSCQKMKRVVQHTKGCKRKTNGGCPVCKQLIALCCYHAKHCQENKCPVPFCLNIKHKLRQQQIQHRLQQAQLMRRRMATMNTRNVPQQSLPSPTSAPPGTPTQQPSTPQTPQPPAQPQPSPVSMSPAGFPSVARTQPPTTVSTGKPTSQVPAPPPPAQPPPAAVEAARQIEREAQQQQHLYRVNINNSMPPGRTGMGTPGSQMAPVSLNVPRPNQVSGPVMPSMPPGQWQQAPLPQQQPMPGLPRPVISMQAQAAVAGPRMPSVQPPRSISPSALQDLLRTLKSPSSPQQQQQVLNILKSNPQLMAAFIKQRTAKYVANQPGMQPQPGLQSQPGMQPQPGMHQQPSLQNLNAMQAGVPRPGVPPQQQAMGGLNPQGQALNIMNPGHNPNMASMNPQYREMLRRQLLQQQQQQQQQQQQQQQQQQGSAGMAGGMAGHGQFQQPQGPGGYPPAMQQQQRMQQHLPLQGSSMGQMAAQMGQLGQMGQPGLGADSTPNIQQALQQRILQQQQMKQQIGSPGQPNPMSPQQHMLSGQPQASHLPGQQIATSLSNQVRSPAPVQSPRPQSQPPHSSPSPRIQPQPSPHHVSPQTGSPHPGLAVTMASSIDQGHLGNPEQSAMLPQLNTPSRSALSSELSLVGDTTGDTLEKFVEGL
UniProt O00754, sequence (whole entry, looked up): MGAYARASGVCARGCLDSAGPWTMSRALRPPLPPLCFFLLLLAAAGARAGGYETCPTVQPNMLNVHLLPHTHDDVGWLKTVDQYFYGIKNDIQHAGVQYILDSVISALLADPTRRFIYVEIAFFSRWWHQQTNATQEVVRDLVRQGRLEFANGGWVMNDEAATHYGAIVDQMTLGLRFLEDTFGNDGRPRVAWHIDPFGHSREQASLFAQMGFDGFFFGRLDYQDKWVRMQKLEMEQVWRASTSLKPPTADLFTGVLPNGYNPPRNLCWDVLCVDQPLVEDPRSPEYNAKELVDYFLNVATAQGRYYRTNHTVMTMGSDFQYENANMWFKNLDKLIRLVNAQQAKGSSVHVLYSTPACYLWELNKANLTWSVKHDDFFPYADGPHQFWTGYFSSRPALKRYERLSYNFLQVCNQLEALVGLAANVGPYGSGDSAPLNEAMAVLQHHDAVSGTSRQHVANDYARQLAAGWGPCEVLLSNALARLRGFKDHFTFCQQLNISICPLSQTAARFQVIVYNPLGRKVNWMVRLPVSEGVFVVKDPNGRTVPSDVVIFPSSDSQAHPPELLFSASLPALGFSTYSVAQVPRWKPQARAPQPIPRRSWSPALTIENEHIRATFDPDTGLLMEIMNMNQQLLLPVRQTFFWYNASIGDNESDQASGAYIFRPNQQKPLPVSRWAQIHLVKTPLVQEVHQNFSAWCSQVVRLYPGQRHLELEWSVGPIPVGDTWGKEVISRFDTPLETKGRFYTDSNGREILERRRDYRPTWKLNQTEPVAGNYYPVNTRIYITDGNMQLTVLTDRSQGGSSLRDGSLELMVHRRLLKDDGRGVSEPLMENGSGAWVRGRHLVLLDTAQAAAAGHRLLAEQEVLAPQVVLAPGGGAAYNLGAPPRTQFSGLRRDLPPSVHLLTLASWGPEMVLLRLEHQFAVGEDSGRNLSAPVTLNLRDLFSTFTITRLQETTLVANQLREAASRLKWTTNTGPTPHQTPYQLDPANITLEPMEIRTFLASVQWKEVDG
UniProt P10111, sequence (whole entry, looked up): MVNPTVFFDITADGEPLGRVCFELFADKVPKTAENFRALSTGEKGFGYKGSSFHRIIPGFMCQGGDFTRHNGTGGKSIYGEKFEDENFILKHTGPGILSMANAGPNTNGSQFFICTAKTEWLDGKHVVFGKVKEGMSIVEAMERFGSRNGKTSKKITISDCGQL

CCCc1nc2ccc(N(Cc3ccco3)C(=O)c3ccccc3)cc2c(=O)n1Cc1ccc(-c2ccccc2-c2nnn[nH]2)cc1
Ki (AGTR2 (Homo sapiens, UniProt P50052, M128A); ligand displacement, radioligand; cell membranes): 20.9 nM

Nc1nc(O)c2[nH]cc(CN[C@H](CO)CCP(=O)(O)O)c2n1
Ki (Hypoxanthine-guanine phosphoribosyltransferase; enzyme activity, inhibitor; pH 7.4): 20 nM

CCCCCCc1ccc(Oc2ccc(Oc3cccc(=O)[nH]3)cc2)c(O)c1
Ki (Enoyl-[acyl-carrier-protein] reductase [NADPH] FabI (Staphylococcus aureus, UniProt Q6GI75); enzyme activity, inhibitor; 37 °C): 46 nM

CCCc1nc2ccc(Nc3ccccc3)cc2c(=O)n1Cc1ccc(-c2ccccc2-c2nnn[nH]2)cc1
Ki (AGTR2; ligand displacement, radioligand): 2990 nM

O[C@@H]1[C@H](O)[C@@H](CNC(=S)Nc2ccccc2)N2CCC[C@@H](O)[C@H]12
Ki (Lysosomal alpha-mannosidase (Homo sapiens, UniProt O00754); enzyme activity, inhibitor; together with: Man-α-4MU substrate): 610 nM

CCOC(=O)NS(=O)(=O)c1sc(CC(C)C)cc1-c1ccc2c(c1)CN(CC)C(=O)C2
Ki (AGTR2; ligand displacement, radioligand; cell membranes): 850 nM

C=C1CC2(C(=O)OC)C=C(C(=O)OC(C)(C)C)C(=O)C1C2 (centres unmarked)
Ki (MAPK1; ligand displacement, FP): 8400 nM

O=C(CN1CCO[C@@H](COc2cccc(Cl)c2)C1)N1CCc2ccccc21
Ki (DRD4; ligand displacement, radioligand): < 1000 nM

CNCCNC(=O)CN1C(=O)Cc2c([nH]c3ccc(Br)cc23)-c2ccc(Cl)cc21
Ki (Trypanothione synthetase (Leishmania infantum, UniProt A4I2Z3); enzyme activity, competitive inhibitor; apparent, together with: glutathionylspermidine variable): 59 nM

CCCC[C@@H](C)[C@H]1CC[C@H]2/C(=C/C=C3C[C@@H](O)C(C)[C@H](O)C3)CCC[C@]12C (some centres unmarked)
Ki (Vitamin D3 receptor (Rattus norvegicus, UniProt P13053); binding, radioligand competition; together with: radiolabelled 1α,25-dihydroxyvitamin D3 1 nM): 2 nM

COC(=O)C1(CCCCl)C=C(C(=O)OC(C)(C)C)C(=O)CC1 (centres unmarked)
Ki (MAPK1; ligand displacement, FP): 10800 nM

O=C(/C=C/c1ccc([N+](=O)[O-])cc1)c1ccccc1
Ki (cathepsin B; enzyme activity, competitive inhibitor; pH 6.0, purified goat liver enzyme, together with: BANA substrate): 87700 ± 400 nM

Nc1nc2c(CNCCCP(=O)(O)O)c[nH]c2c(=O)[nH]1
Ki (Hypoxanthine-guanine phosphoribosyltransferase; enzyme activity, inhibitor; pH 7.4): 1000 nM

NC(=O)N/N=C(/C=C/c1cccc(Cl)c1)c1ccccc1
Ki (cathepsin B; enzyme activity, competitive inhibitor; pH 6.0, purified goat liver enzyme, together with: BANA substrate): 43000 ± 400 nM

CN(C)C=Nc1c(C#N)cnn1-c1ccc(F)c(Cl)c1
Ki (Aurora kinase B (aurB, Drosophila melanogaster, UniProt Q9VKN7); kinase activity, ATP-competitive inhibitor): 360 ± 100 nM

CC(C)C[C@H](NC(=O)[C@H](CCCNC(=N)N)NC(=O)[C@H](Cc1ccc(O)cc1)NC(=O)CCCCCCC(=O)N[C@@H](Cc1ccc(O)cc1)C(=O)N[C@@H](CCCNC(=N)N)C(=O)N[C@@H](CC(C)C)C(=O)NN(CCCNC(=N)N)C(=O)N[C@@H](Cc1ccc(O)cc1)C(N)=O)C(=O)NN(CCCNC(=N)N)C(=O)N[C@@H](Cc1ccc(O)cc1)C(N)=O
Ki (NPY2R (Homo sapiens, UniProt P49146); ligand displacement, radioligand): > 5000 nM

CCOC(=O)C1(C)C=C(C(=O)OC)C(=O)CC1 (centres unmarked)
Ki (MAPK1; ligand displacement, FP): 172000 nM

O[C@@H]1Cc2ccccc2[C@H]1NCc1cn2ccc(Br)cc2n1
Ki (DRD4; ligand displacement, radioligand): 120 nM

CCC1(CC)C(=O)N(c2cccc(CN3CCc4cc5c(cc4C3)OCO5)c2)C1=O
Ki (Dipeptidyl peptidase 8 (Homo sapiens, UniProt Q6V1X1); enzyme activity, inhibitor, fluorescence): 2.7 nM

CCc1nc2ccc(N(Cc3ccccc3)C(=O)c3cccs3)cc2c(=O)n1Cc1ccc(-c2ccccc2-c2nn[nH]n2)cc1
Ki (AGTR2 (Homo sapiens, UniProt P50052, F272A); ligand displacement, radioligand; cell membranes): 11.5 nM

CNc1ccccc1C(=O)O[C@H]1[C@@H](O)[C@H](n2ccc(N)nc2=O)O[C@@H]1COP(=O)(O)OP(=O)(O)O
Ki (ADCY5 (Canis lupus, UniProt P30803); adenylyl cyclase activity, inhibitor; Sf9 membranes; together with: 5 mM MnCl2, 100 µM forskolin): 740 ± 30 nM

CCCCOC(=O)NS(=O)(=O)c1sc(CC(C)C)cc1-c1cccc(CN(Cc2cccnc2)C(C)=O)c1
Ki (AGTR2; ligand displacement, radioligand; cell membranes): 110 nM

CC[C@H](C)[C@H](NC(=O)[C@H](CC(=O)O)NC(=O)[C@H](CO)NC(C)=O)C(=O)N[C@@H](CSCc1ccccc1)C(=O)N[C@@H](CC(=O)O)C(=O)N[C@@H](Cc1ccccc1C)C(=O)N[C@@H](C)C(=O)N[C@@H](CC(C)C)C(=O)N[C@@H](CCCCN)C(=O)N[C@@H](CC(N)=O)C(=O)N[C@@H](Cc1ccc(O)cc1)C(=O)N1CCC[C@H]1C(=O)O
Ki (CREBBP KIX domain; binding, competitive inhibitor, fluorescence polarisation; together with: fluorescent MLL peptide): > 500000 nM

C/C=C/C[C@@H](C)[C@@H](O)[C@H]1C(=O)N[C@@H](CC)C(=O)N(C)C(Cc2ccc(C(=O)NCCOCCNC(=O)CC[P+](c3ccccc3)(c3ccccc3)c3ccccc3)cc2)C(=O)N(C)[C@@H](CC(C)C)C(=O)N[C@@H](C(C)C)C(=O)N(C)[C@@H](CC(C)C)C(=O)N[C@@H](C)C(=O)N[C@H](C)C(=O)N(C)[C@@H](CC(C)C)C(=O)N(C)[C@@H](CC(C)C)C(=O)N(C)[C@@H](C(C)C)C(=O)N1C (some centres unmarked)
Ki (Peptidyl-prolyl cis-trans isomerase A (Rattus norvegicus, UniProt P10111); enzyme activity, inhibitor; pH 7.5): 8 nM

CC[C@H](C)[C@H](NC(=O)[C@H](CC(=O)O)NC(=O)[C@H](CO)NC(C)=O)C(=O)N[C@@H](CSCc1ccccc1)C(=O)N[C@@H](CC(=O)O)C(=O)N[C@@H](Cc1ccccc1)C(=O)N[C@H](C(=O)N[C@@H](CC(C)C)C(=O)N[C@@H](CCCCN)C(=O)N[C@@H](CC(N)=O)C(=O)N[C@@H](Cc1ccc(O)cc1)C(=O)N1CCC[C@H]1C(N)=O)[C@@H](C)CC
Ki (CREBBP KIX domain; binding, competitive inhibitor, fluorescence polarisation; together with: fluorescent MLL peptide): 32000 ± 19000 nM

OC[C@@H](CNCc1cn2cc(Cl)ccc2n1)CC1CCCC1
Ki (DRD4; ligand displacement, radioligand): 3900 nM

NC(=O)N/N=C(/C=C/c1ccccc1)c1ccccc1
Ki (cathepsin B; enzyme activity, competitive inhibitor; pH 6.0, purified goat liver enzyme, together with: BANA substrate): 42500 ± 200 nM

COc1ccc(-c2nc(CSc3nc(N)c(C#N)c(-c4ccccc4)c3C#N)cs2)cc1
Ki (ADORA2B (Homo sapiens, UniProt P29275); binding): 272 ± 99 nM

COc1ccccc1/C=C/C(=N/NC(N)=O)c1ccccc1
Ki (cathepsin B; enzyme activity, competitive inhibitor; pH 6.0, purified goat liver enzyme, together with: BANA substrate): 2700 ± 20 nM

Nc1nc2c(nc(Br)n2[C@@H]2O[C@H](COP(=O)(O)OP(=O)(O)OP(=O)(O)O)[C@@H](O)[C@H]2O)c(=O)[nH]1
Ki (mRNA-capping enzyme subunit beta (CET1, Saccharomyces cerevisiae, UniProt O13297)): 17000 nM

COc1cccc(/C=C/C(=N/NC(N)=O)c2ccccc2)c1
Ki (cathepsin B; enzyme activity, competitive inhibitor; pH 6.0, purified goat liver enzyme, together with: BANA substrate): 17000 ± 200 nM

COc1ccc(-c2cc(C(F)(F)F)nc(S(=O)(=O)NCC(=O)Nc3ccc(C)cc3)n2)cc1
Ki (WRN (Homo sapiens, UniProt Q14191); DNA unwinding, covalent inhibitor, real-time unwinding; 0.5 nM enzyme, together with: 120 µM ATP): 630 nM

CCCCOC(=O)NS(=O)(=O)c1sc(CC(C)C)cc1-c1cccc(CN(Cc2cccs2)C(C)=O)c1
Ki (AGTR2; ligand displacement, radioligand; cell membranes): 420 nM

CC[C@H](C)[C@H](NC(=O)[C@H](CC(=O)O)NC(=O)[C@H](CO)NC(C)=O)C(=O)N[C@@H](C)C(=O)N[C@@H](CC(=O)O)C(=O)N[C@@H](Cc1ccccc1C)C(=O)N[C@H](C(=O)N[C@@H](CC(C)C)C(=O)N[C@@H](CCCCN)C(=O)N[C@@H](CC(N)=O)C(=O)N[C@@H](Cc1ccc(O)cc1)C(=O)N1CCC[C@H]1C(=O)O)[C@@H](C)CC
Ki (CREBBP KIX domain; binding, competitive inhibitor, fluorescence polarisation; together with: fluorescent MLL peptide): > 500000 nM

NCCCCC(NC(=O)OCc1ccccc1)C(=O)C=O (centres unmarked)
Ki (Serine protease 1 (PRSS1, Bos taurus, UniProt P00760); enzyme activity, inhibitor; pH 7.2, 25 °C, 3.3% DMSO, together with: Nα-benzoyl-L-arginine p-nitroanilide): 8440 ± 800 nM
